{"data": "Experimental data of several laboratories", "note": "A part holds a random share of what one study measured."}
{"data": "Sample 1", "target": "Ras GTPase-activating protein-binding protein 1, full length (G3BP1, Homo sapiens, UniProt Q13283)", "method": "RNA Bind-n-Seq", "form": "RNA", "matrix": "in vitro", "concentration": "200 nM", "notes": "whole 134-nt RNA, ends assumed", "with": "150 mM KCl", "baseline": "input library", "direction": "higher = stronger binding", "constant ends, left off below": "GGGAGUUCUACAGUCCGACGAUC … UGGAAUUCUCGGGUGUCAAGG", "sequence of UniProt Q13283 (whole entry, looked up)": "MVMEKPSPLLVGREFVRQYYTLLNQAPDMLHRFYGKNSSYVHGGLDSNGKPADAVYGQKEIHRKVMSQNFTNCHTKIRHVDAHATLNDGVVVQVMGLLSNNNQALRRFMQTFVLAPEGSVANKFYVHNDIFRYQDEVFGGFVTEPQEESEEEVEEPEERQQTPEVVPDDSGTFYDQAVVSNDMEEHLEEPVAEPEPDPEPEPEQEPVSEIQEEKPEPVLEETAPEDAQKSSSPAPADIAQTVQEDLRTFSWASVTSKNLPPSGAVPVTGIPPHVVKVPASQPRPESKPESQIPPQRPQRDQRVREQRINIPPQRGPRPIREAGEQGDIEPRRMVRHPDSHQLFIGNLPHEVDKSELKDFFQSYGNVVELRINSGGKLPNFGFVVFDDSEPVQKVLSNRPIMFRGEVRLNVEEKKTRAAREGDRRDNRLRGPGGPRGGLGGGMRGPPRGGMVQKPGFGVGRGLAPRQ"}
{"Sequence": "UGUGAAAGAAAACCGAAGUUUUAAAUGACUUCUCAUGGUUAUUUUUUUUCCUUUCUCUUGCAGGACAUUGGGGACACAUUGAGCAGGUAU", "log2 enrichment": 0.148}
{"Sequence": "GCAGGAAGUAAAAACAAAUGGAAAUGCUUCGAAUAGUGGCAGGGGUGGGGGUUGCUAAGGAAAGGGUGGGAUGGGAGUGGGUAAAGAGUU", "log2 enrichment": 1.1}
{"Sequence": "UGGCCCUGGUGGCAUGCGGGGAGGAAGAGGUGGGCUCAUGGAUCGUGGUGGUCCCGGUGGAAUGUUCAGAGGUGGCCGUGGUGGAGACAG", "log2 enrichment": 0.624}
{"Sequence": "UCAAGUCCUGUGCUACACAUCGUAUGUACCGAAUCGGAGGAAAAAGGUUUUUGGAAAGUAUUAUGUUACGCCGUUCGGAUCUGCACUUCC", "log2 enrichment": -1.05}
{"Sequence": "CCUGUGCUACACAUCGUAUGUACCGAAUCAAAGUGUGUGUGUGUGAAAUGUGUGUGUGAAAAAAGUAUUAUGUUACGCCGUUCGGAUCUG", "log2 enrichment": -0.163}
{"Sequence": "UCCUGUGCUACACAUCGUAUGUACCGAAUCGGGGUUUUUUUGGGGAGGGGUUUUUGGGGAAAGUAUUAUGUUACGCCGUUCGGAUCUGCA", "log2 enrichment": 0.625}
{"Sequence": "ACCAUGCAGGUGGGCAUCUUUGGGAAGUGGUGCAAGGGGGGGAUAGGGAGGGGGGUAACACUUUGGGAACAGGUGGUCCCAGGUCGUUUC", "log2 enrichment": 1.29}
{"Sequence": "UGGCCCUGGUGGCAUGCGGGGAGGAAGAGGUGGCCUCAUGGAGCGUGGUGGUCCCGGUGGAAUGUUCAGAGGUGGCCGUGGUGGAGACAG", "log2 enrichment": 0.527}
{"Sequence": "UCCUGUGCUACACAUCGUAUGUACCGAAUCGGGUUUUUUGGUUUUUUGGGGUUUUUUGGAAAGUAUUAUGUUACGCCGUUCGGAUCUGCA", "log2 enrichment": -0.529}
{"data": "Sample 2", "target": "RING finger protein unkempt homolog, zinc fingers 1-6, GST-SBP tag (UNK, Homo sapiens, UniProt Q9C0B0, residues 30-357)", "method": "RNA Bind-n-Seq", "form": "RNA", "matrix": "in vitro", "concentration": "not given", "notes": "RNA with constant flanks, human-mouse chimeric sites, ends assumed", "baseline": "input RNA pool", "direction": "higher = stronger binding", "constant ends, left off below": "GGGAGUUCUACAGUCCGACGAUC … CAACAGAGGAUUGAGCAUCA", "Residues (chain)": "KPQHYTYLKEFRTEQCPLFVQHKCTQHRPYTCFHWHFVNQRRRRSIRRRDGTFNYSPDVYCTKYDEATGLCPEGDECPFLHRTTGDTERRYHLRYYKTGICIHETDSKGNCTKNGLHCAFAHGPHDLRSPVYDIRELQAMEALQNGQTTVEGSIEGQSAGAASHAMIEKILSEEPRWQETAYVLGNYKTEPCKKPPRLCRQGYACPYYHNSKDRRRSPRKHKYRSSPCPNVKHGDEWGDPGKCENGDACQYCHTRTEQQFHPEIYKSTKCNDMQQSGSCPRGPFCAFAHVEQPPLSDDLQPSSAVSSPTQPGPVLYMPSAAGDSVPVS"}
{"Sequence": "UCUGGCCACACUCGUGUGUAUGGUGUUUGCUUUGUUGACACUUCACUGGGCAAGUUUUUCAUCGGCCAGUUUUCGGAUGACCGCCACUGUUCCAGAUUUAGGACGCUAGUGGCUCACUAU", "bound/input enrichment": "0.183 ratio"}
{"Sequence": "AGGAGGAGGUUAAAGGGUGAGAGUGGGGUGGAAGACUGUGUCAUGGCUCUGGAGACACUGUUCAGUGUUCUGCUUUCUCUGUGCAGACUGAUGGCCCCCUACACACCCUUUCUGACUGAG", "bound/input enrichment": "0.0574 ratio"}
{"Sequence": "CAGGGCACAGCACCUACCCCCUCCUCCUUUCCACACCUGCAAACUCUUUUACUUGGGCUGAAUAUUUAGUGUAAUUACAUCUCAGCUUUGAGGGCUCCCUGUGGCAAUUCCCGGAUUAAA", "bound/input enrichment": "1.28 ratio"}
{"Sequence": "UAAGUCCUGUGCCAGCACUUCGCUCAUAAAGUUUUAAAUUCUGGACCAAUUGUGUUUGUUUCCUGAUUUUUGUAUUCAAUACUUUGCCUAGUAUGUAACUCACUCUUACUGAUAAUAAAA", "bound/input enrichment": "0.717 ratio"}
{"Sequence": "ACAGUUAUACACUGUUGUUUCAUUUUCAUAUAUUCUUAUGGUGUCUGCUUGCCUGUGACUUCUGGUAAAAUAAAAUAAGCCUUUGAAAAUAUUUUAGCAUGGUAUUUAACAUUUUCUAAA", "bound/input enrichment": "1.37 ratio"}
{"Sequence": "GAGCGUCUCGCUCGAACUGGGAUCAUCGUGACCACUAGUGAGGCUGUCCUCCUACAGCUGGUGGCUGACAAAGACCACCCGAAGUUCAAGGAAAUUCAGAAUCUAAUUAAGGCGAGUGCC", "bound/input enrichment": "0.104 ratio"}
{"Sequence": "ACCUCCCCCUCCCGCCUGCUUUUUGAACCGCUUUUUGGAAAGUUUUUGGCUUUUUUUUUCCUUCCCCAUACAAAGUGAUUACAGUUUCCCCCGCAAGGGUCUAUCGAAGGGCUUGACGGA", "bound/input enrichment": "1.1 ratio"}
{"Sequence": "AACUUCGUGCAUCGGUUUCCCUUUGUAGCUGUUUCAAUUGGCUUCCUUGUGAAUAAAGAGAUGGAGUUUGGAAUUGUGUACAGUUGUGUGGAAGGCAAGAUGUACACCGGCAGGAAAGGG", "bound/input enrichment": "0.371 ratio"}
{"data": "Sample 3", "target": "Sal-like protein 4, full length isoform A (SALL4, Homo sapiens, UniProt Q9UJQ4, residues 1-1053)", "method": "universal PBM", "form": "double-stranded DNA, one strand shown", "matrix": "in vitro", "concentration": "600 nM", "notes": "8-mer, flanks averaged, mean of replicates", "direction": "higher = stronger binding", "sequence of UniProt Q9UJQ4 (whole entry, looked up)": "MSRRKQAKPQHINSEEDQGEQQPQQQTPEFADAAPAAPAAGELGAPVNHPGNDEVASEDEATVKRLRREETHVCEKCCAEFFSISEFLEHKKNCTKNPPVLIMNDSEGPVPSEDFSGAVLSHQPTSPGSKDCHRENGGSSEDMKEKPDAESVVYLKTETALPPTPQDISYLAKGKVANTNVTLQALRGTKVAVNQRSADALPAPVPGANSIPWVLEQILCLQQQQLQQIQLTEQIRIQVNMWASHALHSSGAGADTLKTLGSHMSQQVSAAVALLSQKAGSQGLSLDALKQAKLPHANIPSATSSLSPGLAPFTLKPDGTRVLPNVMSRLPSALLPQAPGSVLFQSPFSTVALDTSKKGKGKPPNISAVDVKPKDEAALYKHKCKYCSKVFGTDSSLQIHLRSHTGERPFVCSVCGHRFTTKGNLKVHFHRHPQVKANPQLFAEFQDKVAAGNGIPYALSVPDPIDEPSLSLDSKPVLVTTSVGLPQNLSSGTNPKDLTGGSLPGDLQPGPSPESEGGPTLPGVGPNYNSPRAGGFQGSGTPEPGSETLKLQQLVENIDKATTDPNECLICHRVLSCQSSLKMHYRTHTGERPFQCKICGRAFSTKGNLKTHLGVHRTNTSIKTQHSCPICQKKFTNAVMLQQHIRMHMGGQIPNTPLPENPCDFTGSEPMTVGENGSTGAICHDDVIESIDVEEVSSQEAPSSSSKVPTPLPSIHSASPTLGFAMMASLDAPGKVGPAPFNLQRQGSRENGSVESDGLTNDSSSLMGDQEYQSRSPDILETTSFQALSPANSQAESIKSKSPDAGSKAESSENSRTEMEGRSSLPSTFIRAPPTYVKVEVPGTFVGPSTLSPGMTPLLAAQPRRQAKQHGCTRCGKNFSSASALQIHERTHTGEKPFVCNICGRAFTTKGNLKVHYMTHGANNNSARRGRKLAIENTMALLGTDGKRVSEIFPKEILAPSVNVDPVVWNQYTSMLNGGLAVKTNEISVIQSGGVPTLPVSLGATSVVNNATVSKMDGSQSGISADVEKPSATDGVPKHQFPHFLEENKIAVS"}
{"Sequence": "CATCCGCG", "E-score": -0.0987}
{"Sequence": "TAGAGGCA", "E-score": 0.00971}
{"Sequence": "GAGGGATA", "E-score": -0.0476}
{"Sequence": "AAAAACGT", "E-score": 0.114}
{"Sequence": "AGGGTAGA", "E-score": -0.0892}
{"Sequence": "GCCATGAA", "E-score": -0.0745}
{"Sequence": "AGCATTAG", "E-score": 0.052}
{"Sequence": "GACAGCCA", "E-score": -0.145}
{"Sequence": "ACGCGTTA", "E-score": -0.00377}
{"Sequence": "ACGCGCCG", "E-score": -0.34}
{"Sequence": "AGGCCACT", "E-score": -0.182}
{"Sequence": "AGGCACGC", "E-score": -0.376}
{"Sequence": "ACTCAAGC", "E-score": -0.0196}
{"Sequence": "ACCGGTGG", "E-score": -0.368}
{"Sequence": "AATATTCC", "E-score": 0.374}
{"Sequence": "AGCAACAC", "E-score": -0.061}
{"Sequence": "AAAACCTG", "E-score": 0.0215}
{"Sequence": "AGACGTAT", "E-score": 0.145}
{"Sequence": "AAGAAATT", "E-score": 0.318}
{"Sequence": "TAAGTGAA", "E-score": 0.194}
{"Sequence": "ACCTGCCA", "E-score": -0.103}
{"Sequence": "AAATAGCC", "E-score": 0.0501}
{"Sequence": "GAACGGGA", "E-score": -0.159}
{"Sequence": "CATGACAG", "E-score": -0.0376}
{"Sequence": "CTTGCGTA", "E-score": -0.0277}
{"data": "Sample 4", "target": "Histone acetyltransferase KAT6A, winged helix 1, GST fusion (KAT6A, Homo sapiens, UniProt Q92794, residues 1-85)", "method": "protein binding microarray", "form": "double-stranded DNA, one strand shown", "matrix": "in vitro", "concentration": "not given", "notes": "8-mer, flanks averaged, mean of 2 arrays, mostly near background", "baseline": "not given", "direction": "higher = stronger binding", "Target sequence (chain)": "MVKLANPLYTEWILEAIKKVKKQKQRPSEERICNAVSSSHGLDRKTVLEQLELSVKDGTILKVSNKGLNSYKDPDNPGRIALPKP"}
{"Sequence": "CTATGAGC", "E-score": -0.138}
{"Sequence": "GAACAGTA", "E-score": 0.0342}
{"Sequence": "ACCGTCTG", "E-score": 0.139}
{"Sequence": "AACCGGGT", "E-score": 0.295}
{"Sequence": "CGCAGGAA", "E-score": 0.0553}
{"Sequence": "CTAGCTTA", "E-score": -0.158}
{"Sequence": "CGGTCGAA", "E-score": 0.205}
{"Sequence": "TGCATCCA", "E-score": -0.253}
{"Sequence": "GATTCACA", "E-score": -0.199}
{"Sequence": "GCGAAGAA", "E-score": -0.103}
{"Sequence": "CCACATTC", "E-score": -0.115}
{"Sequence": "ATGGCTAC", "E-score": -0.153}
{"Sequence": "ACCGAGGG", "E-score": -0.0584}
{"Sequence": "TACATGCA", "E-score": -0.0005}
{"Sequence": "CCTCACCC", "E-score": 0.0606}
{"Sequence": "CTCACCCA", "E-score": -0.208}
{"Sequence": "GGCGAATA", "E-score": 0.17}
{"data": "Sample 5", "target": "RNA binding protein fox-1 homolog 2, RRM domain, GST-SBP tag (RBFOX2, Homo sapiens, UniProt O43251-10, residues 100-194)", "method": "RNA Bind-n-Seq", "form": "RNA", "matrix": "in vitro", "concentration": "365 nM", "notes": "natural RNA segment, single round, ends assumed", "baseline": "no-protein control", "direction": "higher = stronger binding", "constant ends, left off below": "GGGAGUUCUACAGUCCGACGAUC … UGGAAUUCUCGGGUGCCAA", "Residues (chain)": "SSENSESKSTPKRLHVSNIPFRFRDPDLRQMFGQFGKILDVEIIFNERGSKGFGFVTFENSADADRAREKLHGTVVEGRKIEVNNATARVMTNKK"}
{"Sequence": "GCAUCAGGAGUCCAAACCUCUGAGGUCUGAUCUCUGCUCUGUCAAGGACUUUCGGCAAGUCUCGUGACCUCUGGCUCUUUCACUUCCUCCCCACCUGCCAAAUGGGGAUA", "RBNS enrichment (R)": 0.227}
{"Sequence": "ACCCUUGUUUGAUUUUAGCUGCAGAACGUAUUGGUCCAGCUUGCUCUUCAGUGGGAGAAAACACUUGUAAGUUGCUAAACGAGUCAAUCCCCUCAUUCAGGAAAACUGAC", "RBNS enrichment (R)": 0.484}
{"Sequence": "GAGGCUGUGUGGGCGGGUGCAUGUGCACCGUGGAGUGCACACAAGGGGACUGUCAAUCACAGGGUUUCAUAUGUUGUCAUUGUCACUCUUUCACAUUUUUGUACAUCAGU", "RBNS enrichment (R)": 0.752}
{"Sequence": "ACACGUCCUUUAUUAGAGAUGACCGAGGGGAAGCAGCUGCUGUUUAGCUGACCCCCCACAUGAGAAGACGUUUCUUGAAAUGAGCCCCGGGGGCUCUGGGGUUAGAGCCU", "RBNS enrichment (R)": 0.281}
{"Sequence": "AGGUUGACCAGCAGUGGCCUUACCUGGCCUCUCAGGUGGAUGGAGGCUGUUCUCAUCUGGGGCUGUCUCUUGAUUAAGGCUGUCACCUGUUUGUAUAGGGACCAUGUUUC", "RBNS enrichment (R)": 0.286}
{"Sequence": "UAGUUUACUAAUAGCUGCUCAGUUUGUCAGCUGAUAGUCUGAAUACUAUCAAAAACUAAGAACAUAGUUGAAGCAUGCUUCCUGAAAAUUAACUACAUUAGAAACUGACA", "RBNS enrichment (R)": 1.7}
{"Sequence": "UUUGUACUGUCCUGUCCCAUCUCCCUGUCCCCGCCUGUCCCCGUCCCCUCUGUCAUGGCAGCUCUGCAGGGGCAUGAAUCUGAGUGACGAGAGCCUGCGUUCUUCUGCCU", "RBNS enrichment (R)": 10.7}
{"Sequence": "UAGUGAGGAAGUGAGAGCAGAGGCUGGAAACUCAAUCCCAAGGGGAGAUCUGCCUUCCUACCCUCGGGAAGGGUCACCUAGAGGCUUCUCAGCCCCACCCUCACCCUCUG", "RBNS enrichment (R)": 0.319}
{"note": "Excerpt of the above (sample 3):"}
{"Sequence": "AGCAACAC", "E-score": -0.061}
{"Sequence": "AAAACCTG", "E-score": 0.0215}
{"Sequence": "AGACGTAT", "E-score": 0.145}
{"Sequence": "AAGAAATT", "E-score": 0.318}
{"Sequence": "TAAGTGAA", "E-score": 0.194}
{"Sequence": "ACCTGCCA", "E-score": -0.103}
